{"data": "Assay results from different studies", "note": "Every numbered part comes from another study and shows a few of its results, in no order. Several values in a cell are separate wells, animals, samples, runs or records. Positions count from the first letter of the parent shown."}
{"data": "Sample 1", "target": "CCND3, cyclin fold, Cln2 fusion (human)", "technique": "yeast growth competition, sequencing", "sample": "yeast", "notes": "weak parent motif", "relative to": "not given", "reading": "higher = stronger binding", "parent": "viral docking peptide; YKVKRRLVFGADD"}
{"Substitution": "R6P", "normalised enrichment score": 0.299}
{"Substitution": "K2I", "normalised enrichment score": 0.0187}
{"Substitution": "L7D", "normalised enrichment score": 0.218}
{"Substitution": "V8A", "normalised enrichment score": 0.226}
{"Substitution": "K4N", "normalised enrichment score": 0.145}
{"Substitution": "F9H", "normalised enrichment score": 0.381}
{"Substitution": "R5K F9L", "normalised enrichment score": 0.237}
{"Substitution": "G10I", "normalised enrichment score": -0.0638}
{"data": "Sample 2", "target": "HLA class I histocompatibility antigen, A alpha chain, allele A*26:03 (Homo sapiens, UniProt P04439)", "read-out": "peptide-MHC binding", "molecule type": "peptide", "tested at": "concentration not given"}
{"Molecule": "QVIFKCVPK", "binding": "inactive"}
{"Molecule": "LFNTIATLY", "binding": "inactive"}
{"Molecule": "FLCPTFTLK", "binding": "inactive"}
{"Molecule": "YGIGVGSGY", "binding": "inactive"}
{"Molecule": "ASFKAGKLR", "binding": "inactive"}
{"Molecule": "INTLESMMK", "binding": "inactive"}
{"Molecule": "SSDDIPPRW", "binding": "inactive"}
{"Molecule": "YMYAVSGAL", "binding": "inactive"}
{"data": "Other studies, line by line"}
{"Substance": "CC(CN(C)C)CN1c2ccccc2Sc2ccccc21.CC(CN(C)C)CN1c2ccccc2Sc2ccccc21.O=C(O)C(O)C(O)C(=O)O (stereo not drawn)", "organism": "Vesicular stomatitis virus", "assay": "pseudovirus infection", "setting": "concentration not given, VSV-G control pseudotype", "how to read": "relative to: vehicle", "quantity": "GFP-positive cells", "value": "104%"}
{"Substance": "meglumine antimoniate", "organism": "Leishmania infantum chagasi", "system": "MHOM/BR/1972/BH46, golden hamster chronic infection, liver", "setting": "intraperitoneal, 50 mg/kg/day, 10 days", "quantity": "parasite load", "value": "10500 amastigotes/g tissue and 63.7 amastigotes/g tissue and 509 amastigotes/g tissue and 1510 amastigotes/g tissue and 73 amastigotes/g tissue"}
{"note": "Repeated from above (sample 2):"}
{"Molecule": "FLCPTFTLK", "binding": "inactive"}
